# Results pooled from the literature.
# A part holds a random share of what one study measured.

# Sample 1
# Target: RING finger protein unkempt homolog, zinc fingers 1-6, GST-SBP tag (UNK, Homo sapiens, UniProt Q9C0B0, residues 30-357)
# Technique: RNA Bind-n-Seq
# Molecule type: RNA
# Matrix: in vitro
# Concentration: not given
# Setting: RNA with constant flanks, human-mouse chimeric sites, ends assumed
# Reference: input RNA pool
# Direction: higher = stronger binding
# Construct (chain): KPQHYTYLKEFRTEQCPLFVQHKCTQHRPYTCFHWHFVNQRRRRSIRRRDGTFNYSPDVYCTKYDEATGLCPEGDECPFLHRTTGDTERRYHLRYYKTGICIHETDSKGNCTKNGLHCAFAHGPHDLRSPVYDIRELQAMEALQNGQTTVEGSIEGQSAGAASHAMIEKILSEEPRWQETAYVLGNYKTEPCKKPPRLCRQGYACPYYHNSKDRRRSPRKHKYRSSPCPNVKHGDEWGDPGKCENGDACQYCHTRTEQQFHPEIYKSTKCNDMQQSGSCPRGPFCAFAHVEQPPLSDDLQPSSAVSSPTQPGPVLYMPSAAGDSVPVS
Strand,bound/input enrichment
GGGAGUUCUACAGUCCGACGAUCGUGCCCUUCUCGCUGCUGCGGAGCCCGAGCUGGGAACCAUUCCGGGACUGGUACCCUGCACACAGCCGCCUCUUCGAUCAAGCUUUCGGGCUGCCCCGGUUGCCCGAUGAGUGGUCGCAGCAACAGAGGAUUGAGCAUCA,0.0444 ratio
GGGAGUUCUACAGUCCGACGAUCACCUCCCCCUCCCGCCUCACCCCACCCCCGCUUUUUGGAAAGUUUUUGGCUUUUUUUUUCCUUCCCCAUACAAAGUGAUUACAGUUUCCCCCGCAAGUGGGGCUUGAAGGGCUUGACGGACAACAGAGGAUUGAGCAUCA,0.44 ratio
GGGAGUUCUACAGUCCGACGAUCCGGAGCCCUCCUCUCCCCCAGGCCCGAGAUAUAACCCACCAGUGCCUUUUGUCUUCCUGUCAGCUCUGUCAAUCACGCCUGUCCUCUCACGCCCACACUCCCCAGCCAAAGUGGGGAGGGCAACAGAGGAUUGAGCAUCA,0.969 ratio
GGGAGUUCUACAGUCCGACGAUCCUUAAUGUUAAUAUUUUUGAAUAAAUGAAGCUAAAAUUUUGCUUUCUGGUACAACACGCAUUAAUAAAAGGUUAAGUUUUGUUUUCCACUGAAGUACUAUUUAACAUCUCAGAAAAAAACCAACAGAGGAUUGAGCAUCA,0.246 ratio
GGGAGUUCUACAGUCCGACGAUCGUAUACGGUUAUCGAGGAAAGGACUGUAGAGCGAAUGUAUACCUGCUUCCCACAGGGGAGAUAGUUUAUUUUAUCGCAUCAGUAGUAGUCCUGUUUAAUUAUGAGGAGAGGACUCAGCGACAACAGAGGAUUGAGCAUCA,3.19 ratio
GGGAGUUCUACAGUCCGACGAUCACACAAUAUGAGACCAACAGCUUGGACUUCAAAGUUGGGGCAGAUGGGACAGUCUUCGCCACCCGGGAGUUGAAGAUCCCCUCCGAGCAGGUGGCGUUCACGGUGACUGCAUGGGACAGCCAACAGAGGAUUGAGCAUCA,0.237 ratio
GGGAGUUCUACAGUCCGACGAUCUUGAAAACUGAUUCAAGUAAGUUUGAGUAUCACAAUGUUAGCUUUCUAAUUCCAUAAAGAUAGUUUUUUUUUACAGUUUAUAAUCUGACAUCACCCCAGCGCCAUUUGUAAAGAGCAACUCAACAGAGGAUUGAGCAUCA,8.46 ratio
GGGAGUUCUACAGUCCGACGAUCUAAGUUAUUUUGUACAGCUUUGUAAAUUCUUAACAUUUUUAUAUUGCACAUUUUAUGUUGUUUGGGUAAUUUGGUUCAUUAAGUACAUAGCUAAGGUACAUCUUUCAUUUUUCAGUAAUUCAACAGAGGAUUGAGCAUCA,0.9 ratio

# Sample 2
# Target: Histone acetyltransferase KAT6A, winged helix 1, GST fusion (KAT6A, Homo sapiens, UniProt Q92794, residues 1-85)
# Technique: protein binding microarray
# Molecule type: double-stranded DNA, one strand shown
# Matrix: in vitro
# Concentration: not given
# Setting: 8-mer, flanks averaged, mean of 2 arrays, mostly near background
# Reference: not given
# Direction: higher = stronger binding
# Residues (chain): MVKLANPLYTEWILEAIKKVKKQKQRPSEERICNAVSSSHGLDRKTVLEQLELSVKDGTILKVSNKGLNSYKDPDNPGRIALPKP
Strand,E-score
TCATACCA,-0.098
GCATGGTA,0.0997
AAGCGAAC,0.0871
CCCCCAGG,-0.181
ACACCTGA,-0.00212
CGGGATTC,0.236

# Sample 3
# Target: Sal-like protein 4, full length isoform A (SALL4, Homo sapiens, UniProt Q9UJQ4, residues 1-1053)
# UniProt Q9UJQ4, sequence (whole entry, looked up): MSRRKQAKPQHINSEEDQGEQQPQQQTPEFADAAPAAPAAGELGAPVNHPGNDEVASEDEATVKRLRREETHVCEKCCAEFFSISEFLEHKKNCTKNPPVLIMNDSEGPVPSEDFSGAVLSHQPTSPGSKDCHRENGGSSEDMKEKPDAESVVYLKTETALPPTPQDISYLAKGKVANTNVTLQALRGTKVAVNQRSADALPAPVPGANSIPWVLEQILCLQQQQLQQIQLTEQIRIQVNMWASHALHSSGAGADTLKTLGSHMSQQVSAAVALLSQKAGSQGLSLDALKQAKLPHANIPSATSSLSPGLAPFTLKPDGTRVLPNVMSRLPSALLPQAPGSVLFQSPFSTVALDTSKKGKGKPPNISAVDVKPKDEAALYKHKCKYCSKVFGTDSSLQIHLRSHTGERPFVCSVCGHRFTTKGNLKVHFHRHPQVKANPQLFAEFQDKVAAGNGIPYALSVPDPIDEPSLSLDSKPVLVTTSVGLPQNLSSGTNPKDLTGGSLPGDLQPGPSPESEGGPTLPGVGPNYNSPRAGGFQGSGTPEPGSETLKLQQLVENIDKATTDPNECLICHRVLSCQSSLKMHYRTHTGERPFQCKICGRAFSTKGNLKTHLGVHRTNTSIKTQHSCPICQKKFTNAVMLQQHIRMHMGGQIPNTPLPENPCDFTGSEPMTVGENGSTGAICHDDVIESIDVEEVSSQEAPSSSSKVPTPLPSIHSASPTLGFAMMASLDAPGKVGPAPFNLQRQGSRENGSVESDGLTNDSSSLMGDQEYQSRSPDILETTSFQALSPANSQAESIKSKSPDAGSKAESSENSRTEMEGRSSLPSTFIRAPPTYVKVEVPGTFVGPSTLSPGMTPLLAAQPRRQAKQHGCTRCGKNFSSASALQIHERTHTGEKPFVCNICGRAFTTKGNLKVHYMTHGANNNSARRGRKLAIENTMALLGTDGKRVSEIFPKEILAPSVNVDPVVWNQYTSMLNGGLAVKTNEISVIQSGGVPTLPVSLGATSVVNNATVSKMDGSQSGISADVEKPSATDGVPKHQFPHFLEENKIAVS
# Technique: universal PBM
# Molecule type: double-stranded DNA, one strand shown
# Matrix: in vitro
# Concentration: 600 nM
# Setting: 8-mer, flanks averaged, mean of replicates
# Direction: higher = stronger binding
Strand,E-score
CCGAATCC,-0.287
ATCCTACA,0.00611
ACAGACGT,-0.0894
ACCGAACC,-0.254
ACGATCTG,-0.238
GATCCTAA,-0.171
CTTGAAAG,0.00812
ACTTTGGA,0.2

# Single results of other studies
Molecule,target,test,system,conditions,how to read,measurement,value
"PhoQ, residues 284 288 289 292 302 303 SLGVVW","PhoP, residues 12 14 15 18 19 LWHVM (Escherichia coli, UniProt P23836)","Sort-seq, item: YFP reporter",E. coli,"PhoQ-PhoP variant library, together with: 10 µM Mg2+","reference: high Mg2+ state, higher = stronger signaling",fold induction,16.2

# Repeated from above (sample 3):
Strand,E-score
ACGATCTG,-0.238
ACAGACGT,-0.0894
ATCCTACA,0.00611
